Experimental data from different studies.
Parts stem from different laboratories: compare values within a part only.

Block 1
Target: RNA binding protein fox-1 homolog 2, RRM domain, GST-SBP tag (RBFOX2, Homo sapiens, UniProt O43251-10, residues 100-194)
Technique: RNA Bind-n-Seq
Molecule type: RNA
Sample: in vitro
Concentration: 365 nM
Setting: natural RNA segment, single round, ends assumed
Reference: no-protein control
Direction: higher = stronger binding
Measurement: RBNS enrichment (R)
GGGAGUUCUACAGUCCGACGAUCAUUUCUCCAACCACUCAUCCCUCUUUUUCUUUCUUCCACCACUCCCCACCCCAGCUGUAGUUAAUUUCAGUGCCUUACAAAUCCUAAGCUCAGAGAAAGUUCCAUUUCCGUGGAAUUCUCGGGUGCCAA: 1.29
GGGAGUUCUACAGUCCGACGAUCUUAUGAAACUCCUACUGGAGCUCAAUUUGUAAUUUAGAAACAUUUAAUUUUGUUAAUCCUGUCUGGGACAUUUAGGUAACAUCUAAAGCAUUAUUGCUUUAGAAUGUUCAUGGAAUUCUCGGGUGCCAA: 0.85
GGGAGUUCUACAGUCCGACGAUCAAUACAGUCUAAGUGAAGAAAAUAAAUAAAAGGAAGAGGUUUAUAACUUGCUCUAUAUCUGUACAGAUUAUAAUCAAUAAGUGCACUAUUAUUAAAUGUUUAAAGUAAGGUGGAAUUCUCGGGUGCCAA: 6.55
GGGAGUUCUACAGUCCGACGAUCACCUCCAGGUGGAGGAACCACACGGCAGAGUUCUGUGUGUCUGUGUUGAAGCUAGAGGCGGCUAGAGCAACCCUGGCUGGUAGAGGCCUGGCACACCCUAGUAGCCGGGUUGGAAUUCUCGGGUGCCAA: 0.745
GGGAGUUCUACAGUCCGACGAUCCUUGUCUUCCUAAAACACUAUUAAGCUUAUUGUACUUUUAAGAAAAAUUGCCUUACGUACAUUCCUUUUUCCUUUUUCUGCCUCUUCCCUCAAUAGUUGCCUUUUAGUGCUGGAAUUCUCGGGUGCCAA: 0.848
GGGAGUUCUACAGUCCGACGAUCUUCUCUUUCAUGAGGGUGGAACUUGCACAGAAAAGAAGAAUAAUCGCAAGAAGAGAUUUGGGCUUAACACUGGGUACUUUGUGGGUCUCUUUUGUGGAUGGCUUCAAGUAUGGAAUUCUCGGGUGCCAA: 0.753

Block 2
Target: Ras GTPase-activating protein-binding protein 1, C-terminal RGG region (G3BP1, Homo sapiens, UniProt Q13283)
Chain of UniProt Q13283 (whole entry, looked up): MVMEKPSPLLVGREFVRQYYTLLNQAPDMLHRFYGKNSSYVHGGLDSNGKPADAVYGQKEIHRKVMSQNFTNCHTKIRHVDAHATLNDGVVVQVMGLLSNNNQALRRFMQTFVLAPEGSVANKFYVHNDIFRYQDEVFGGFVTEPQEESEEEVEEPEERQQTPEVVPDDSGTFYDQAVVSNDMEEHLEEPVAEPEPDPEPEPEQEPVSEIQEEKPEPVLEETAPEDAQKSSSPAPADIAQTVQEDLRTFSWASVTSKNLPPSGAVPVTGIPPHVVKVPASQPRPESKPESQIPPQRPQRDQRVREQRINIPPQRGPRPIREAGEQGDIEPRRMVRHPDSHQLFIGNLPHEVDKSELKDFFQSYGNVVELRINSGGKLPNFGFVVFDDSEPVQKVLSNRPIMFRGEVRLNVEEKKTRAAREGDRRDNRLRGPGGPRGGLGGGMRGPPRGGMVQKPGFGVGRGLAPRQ
Technique: RNA Bind-n-Seq
Molecule type: RNA
Sample: in vitro
Concentration: 1 µM
Setting: whole 134-nt RNA, ends assumed
With: 150 mM KCl
Reference: input library
Direction: higher = stronger binding
Measurement: log2 enrichment
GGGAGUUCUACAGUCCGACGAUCGUCCUGUGCUACACAUCGUAUGUACCGAAUCGGGGCCCCCGGGGCCCCCGGCCCCCGGGAAAGUAUUAUGUUACGCCGUUCGGAUCUGCAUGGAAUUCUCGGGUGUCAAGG: -1.45
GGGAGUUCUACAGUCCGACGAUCCAAGUCCUGUGCUACACAUCGUAUGUACCGAAUCGGGUGGGAAAAAGGGAAAGGGAAAGUAUUAUGUUACGCCGUUCGGAUCUGCACUUCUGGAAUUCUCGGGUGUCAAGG: 1.39
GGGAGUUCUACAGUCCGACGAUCUUGUGGAAAGGAGGAGAACCCCUGCUGAAAUUCGAGAGGAGUUUGAGCGGCUGCAGAGAGAGAGAGAAGAGAGGAGAUUGCAGCAGCGAAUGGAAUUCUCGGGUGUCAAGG: -1.86
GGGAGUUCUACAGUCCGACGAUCGCAGGCAGUAAAAACAAAUGGAAAUGCUUCGGAUAGUGGCAGGGGUGGGGGUUGCUAAGGAAAGGGUGGGAUGGGAGUGGGUAAAGAGUUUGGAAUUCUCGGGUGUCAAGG: 2.65
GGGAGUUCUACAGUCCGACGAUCUAACUUUAGAGGAGGAUCUGAUGGAUAUGGCAGUGGACGUGGUUUUGGGGAUGGCUAUAAUGGGUAUGGAGGAGGACCUGGAGGUGGCAAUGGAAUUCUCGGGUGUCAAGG: -1.24
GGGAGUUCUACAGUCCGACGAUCUGUGCUACACAUCGUAUGUACCGAAUCGGGGCCCCCCCGGGGCCCCCCCGGGGCCCCCCCGGGAAAGUAUUAUGUUACGCCGUUCGGAUCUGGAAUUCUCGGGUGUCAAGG: -2.54
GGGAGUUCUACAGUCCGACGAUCACCAUGCAGGUGGGCAUCUUUGGGAAGUGGGGCAAGGGGGGGAUAGGGAGGGGGGUAACACUUUGGGAACAGGUGGUCCCAGGUCGUUUAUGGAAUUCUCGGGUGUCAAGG: 2.57
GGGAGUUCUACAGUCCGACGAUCAAGUCCUGUGCUACACAUCGUAUGUACCGAAUCGGGGAGGGGUUUUUGGGGAGGGGAAAGUAUUAUGUUACGCCGUUCGGAUCUGCACUUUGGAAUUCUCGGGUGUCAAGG: 2.33
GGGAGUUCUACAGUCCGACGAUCUCAAGUCCUGUGCUACACAUCGUAUGUACCGAAUCGGAGGAAAAAGGAAAAAGGAAAGUAUUAUGUUACGCCGUUCGGAUCUGCACUUCCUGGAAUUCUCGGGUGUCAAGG: -1.41
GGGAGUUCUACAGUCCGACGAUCUGGCCCUGGUGGCAUGCGGGGAGGAAGAGGUGGCCUCAUGGAUCGCGGUGGUCCCGGUGGAAUGUUCAGAGGUGGCCGUGGUGGAGACAGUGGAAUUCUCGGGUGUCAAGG: 2.44

Block 3
Target: RING finger protein unkempt homolog, zinc fingers 1-6, GST-SBP tag (UNK, Homo sapiens, UniProt Q9C0B0, residues 30-357)
Chain of UniProt Q9C0B0 (30-357, looked up): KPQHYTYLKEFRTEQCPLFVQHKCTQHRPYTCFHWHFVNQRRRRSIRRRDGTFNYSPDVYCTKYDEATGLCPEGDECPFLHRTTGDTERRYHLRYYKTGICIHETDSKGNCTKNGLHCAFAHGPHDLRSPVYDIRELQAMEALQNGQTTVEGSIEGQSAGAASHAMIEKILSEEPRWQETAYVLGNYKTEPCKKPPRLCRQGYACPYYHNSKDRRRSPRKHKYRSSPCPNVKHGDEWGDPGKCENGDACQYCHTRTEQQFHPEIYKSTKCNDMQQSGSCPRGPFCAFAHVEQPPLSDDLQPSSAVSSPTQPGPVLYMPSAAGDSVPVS
Technique: RNA Bind-n-Seq
Molecule type: RNA
Sample: in vitro
Concentration: not given
Setting: RNA with constant flanks, human-mouse chimeric sites, ends assumed
Reference: input RNA pool
Direction: higher = stronger binding
Measurement: bound/input enrichment
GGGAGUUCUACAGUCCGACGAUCUUACCCGAAAAUGAAGAUGAGCUGGAGAGCACCAACAGGCGCUACACCAAGAGGGACUGCAGCACUUUCCUCAGAACUAGUGAGACGGGCAUCGUGGAUCAGGUUAUGGUCACUCUCAACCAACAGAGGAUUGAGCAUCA: 0.17 ratio
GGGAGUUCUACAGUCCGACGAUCUUUGUUUGUAACUUAUCUCUGUAAAAGUCCCCCCCCCACUGUCAAAAAAAUAUGCAUGUAUAGUAAUUAGGACUUCAUUCCUCCAUGUUUUCUUCCCUUAUCUUACUGUCAUUGUCCUUACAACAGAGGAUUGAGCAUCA: 1.46 ratio
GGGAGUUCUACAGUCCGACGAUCGAUAAGAAAAACUUGUUGGAGACCCGCUUGCAUGUCACUGGUAGAGACCUGAGGUGUCAAAUAGCUGAAACUUUCGGAUUUCAAGAAAAUUACAUCAAGAUCGUAAUAAAUAAGAAGCAGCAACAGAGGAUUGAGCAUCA: 0.466 ratio
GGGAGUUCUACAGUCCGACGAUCGCAAAGGAUGAUGAGGCAGCUGCAGUUGCCCUUUCCUCUCUCGUUCAUGCUUUGGAUGACUUAGACAUGGUCGCCAUCGUCCGAUAUGCUUAUGACAAAAGAUCUAAUCCUCAAGUUGGUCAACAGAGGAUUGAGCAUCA: 0.119 ratio
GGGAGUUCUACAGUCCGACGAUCUCCUUGGAACCCAGUCAUAUAGGUGACCUGCAAAAAGCAGACACCAGUAGUCAAGGUGCUUUAGUGUUUCUCUCAAAGGACUACGAGAUAGAAAAUCAAAAUCCCCUGGCCUCUCCUACGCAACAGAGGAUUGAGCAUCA: 1.58 ratio
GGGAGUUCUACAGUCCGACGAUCCGGAGCCCUCCUCUCCCACAGGCCCAAGAUAUAACCCACCAGUGCCUUCUGUCUGCUUGUCAGCUCUGUCAAUCACGCCUGUCCUCUCACGCCCACACCAAGUGCCCCCACCCCUAAGGGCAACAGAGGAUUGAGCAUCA: 0.367 ratio
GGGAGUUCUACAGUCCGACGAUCCGCUGGCCCAAGCUGAUGGACUCUGAUCUUGAUCUCUUCUCAGGCACGUGUGCCUUCUCUUAGUCCCUGUUUUCGGGUCACAAAGCUUCUCAGUACUGUGGUUUGAAAGCACCAGCUUUGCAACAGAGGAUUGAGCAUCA: 0.135 ratio
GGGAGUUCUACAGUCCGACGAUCGUGUCCUGCUUUCAACUUAAAUCACUGAGGCAUCUCUACUGUUCUGUUAAAAUCAGGACUGUAGCGCUUGCCACCACCAUGAGAGUUCAGAAGCAGCCUUUCUGUGGAGGGUGGGAAUGACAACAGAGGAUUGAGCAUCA: 0.111 ratio

Block 4
Target: Phosphate system positive regulatory protein PHO4, full length, GST-tagged (PHO4, Saccharomyces cerevisiae, UniProt P07270, residues 1-312)
Technique: competition protein-binding microarray
Molecule type: double-stranded DNA, one strand shown
Sample: in vitro
Concentration: 2 µM
Setting: whole 60-bp probe, lowest competitor level
With: Cbf1 competitor, 0.05 µM
Direction: higher = stronger binding
Measurement: fluorescence intensity
Residues (chain): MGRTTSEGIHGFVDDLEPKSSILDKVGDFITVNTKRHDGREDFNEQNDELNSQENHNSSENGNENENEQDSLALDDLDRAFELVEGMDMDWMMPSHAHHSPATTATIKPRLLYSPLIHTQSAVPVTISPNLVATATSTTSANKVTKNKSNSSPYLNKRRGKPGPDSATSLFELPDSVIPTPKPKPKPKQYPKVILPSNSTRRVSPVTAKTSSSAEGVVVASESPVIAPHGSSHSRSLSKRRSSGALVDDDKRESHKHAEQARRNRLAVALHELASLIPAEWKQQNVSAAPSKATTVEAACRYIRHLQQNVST
ATCTTGGGGATTACCCACGTGCTGTAACAAACGGTTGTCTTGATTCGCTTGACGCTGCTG: 20600 a.u.
CATACCCAACCTTTTCACGTGGGATAAGATATTTGTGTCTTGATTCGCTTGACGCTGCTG: 14300 a.u.
GACAGATGTGGAGTCAGCGTGGGTAGTGGGGTAACAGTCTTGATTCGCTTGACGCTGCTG: 7300 a.u.
TGCGCAACAACTTGTCACGTAACTTTATGTCTAGAAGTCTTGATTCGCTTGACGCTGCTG: 3990 a.u.
TTATCAGTGCTAAAGCACGATCCAAGTGGTGGCACAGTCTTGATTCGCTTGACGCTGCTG: 7070 a.u.
TTCAACGCATTGAGACACATGGCTAACTACCCAGTAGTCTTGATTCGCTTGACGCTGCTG: 8620 a.u.
GAGAATGCCTTTGTCCATGTGATAAACCGTCCAAAAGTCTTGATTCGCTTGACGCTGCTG: 6560 a.u.
AAATTACTAAGTTGGCCAGTGGGTGACGCCGTATGAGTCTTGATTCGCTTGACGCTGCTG: 3410 a.u.
CCTATTATTGTTTGTCACGATGTCTTGGCTCAAGCTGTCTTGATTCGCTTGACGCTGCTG: 9220 a.u.
CTTCTGTAAATTTGTTACGTGGGTGGACGCGCCCCGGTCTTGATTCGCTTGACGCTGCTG: 6370 a.u.
CGTCCTAGTGATTGGATGGTGGGTGCCATGAGGAAGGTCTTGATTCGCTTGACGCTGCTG: 7410 a.u.
GGATGCCCGAAATCCAACGTGCAAACTATTCTCGGGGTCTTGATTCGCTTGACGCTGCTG: 10500 a.u.
CGTCCTAGTGATTGGTCCGTGGGTGCCATGAGGAAGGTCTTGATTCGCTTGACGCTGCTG: 8140 a.u.
TCTGAACTAAAAAAAGGCGTGCCAGATACTATATATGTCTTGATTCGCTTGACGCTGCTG: 9420 a.u.
GCTACCCCGGCCTGCCGTGTGGCTCTCTGTGCGAAGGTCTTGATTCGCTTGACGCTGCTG: 5430 a.u.
TGCGCAACAACTTGAAGTGTGGGTGTATGTCTAGAAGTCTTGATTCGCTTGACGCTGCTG: 5990 a.u.
GTTTGATAGCTGGTTTACGTGCATCTCAAACAGAGAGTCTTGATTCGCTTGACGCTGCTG: 5380 a.u.
CATACCCAACCTTGGGGCGTGGGTGAAGATATTTGTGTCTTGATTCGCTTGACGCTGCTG: 11000 a.u.
TCCTTCTACAATCCTTTCGTGACGAATATTGAATCAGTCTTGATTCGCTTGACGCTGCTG: 4210 a.u.
GAAACGGGTGGGAATGACGTGGTAATCAATGAACTAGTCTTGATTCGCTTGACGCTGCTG: 4520 a.u.

Some of these lines once more (block 4):
GGATGCCCGAAATCCAACGTGCAAACTATTCTCGGGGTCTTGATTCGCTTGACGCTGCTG: 10500 a.u.
GACAGATGTGGAGTCAGCGTGGGTAGTGGGGTAACAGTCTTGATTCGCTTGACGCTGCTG: 7300 a.u.
CTTCTGTAAATTTGTTACGTGGGTGGACGCGCCCCGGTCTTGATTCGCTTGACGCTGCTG: 6370 a.u.
CCTATTATTGTTTGTCACGATGTCTTGGCTCAAGCTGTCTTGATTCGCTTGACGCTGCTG: 9220 a.u.
TGCGCAACAACTTGTCACGTAACTTTATGTCTAGAAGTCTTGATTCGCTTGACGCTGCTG: 3990 a.u.
